Published values from different studies.
Every numbered part comes from another study and shows a few of its results, in no order.

Series 1
Target: Interferon regulatory factor 3, full length, phosphomimetic (IRF3, Homo sapiens, UniProt Q14653, residues 1-427, S386D/S396D/S398D/S402D/T404D/S405D)
Method: protein-binding microarray
Form: double-stranded DNA, one strand shown
Sample: in vitro
Concentration: 2540 nM top
Setting: 60-bp whole probe
Together with: salmon DNA 0.4 mg/ml
Baseline: random background probes
Direction: higher = stronger binding
Constant ends, left off below: GCCTAGCAC … GTCTTGATTCGCTTGACGCTGCTG
Residues (chain): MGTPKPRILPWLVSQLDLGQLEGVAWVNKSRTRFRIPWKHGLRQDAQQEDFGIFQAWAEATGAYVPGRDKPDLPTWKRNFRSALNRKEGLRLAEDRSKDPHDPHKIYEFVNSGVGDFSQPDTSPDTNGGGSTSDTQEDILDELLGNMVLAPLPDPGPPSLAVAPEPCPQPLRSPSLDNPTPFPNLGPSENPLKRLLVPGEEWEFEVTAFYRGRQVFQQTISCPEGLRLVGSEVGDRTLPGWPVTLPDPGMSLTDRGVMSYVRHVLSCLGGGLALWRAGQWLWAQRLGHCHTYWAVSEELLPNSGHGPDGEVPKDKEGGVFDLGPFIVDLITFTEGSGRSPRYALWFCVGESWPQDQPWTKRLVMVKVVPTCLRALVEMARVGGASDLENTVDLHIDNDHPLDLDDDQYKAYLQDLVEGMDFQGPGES
Strand	fitted relative affinity [z-score]
TTAGGTTTCCGTATCGGTTAGTGCTAG	6.99
TTAAGTCTCGGTCTCGGTTAGTGCTAG	1.47
TTAGGACTGGGGACTGGATTAGTGCTA	-0.853
GACGATCTCACTATCGAGACGTGCTAG	0.856
TTTGATTTCAGTATCGATTAGTGCTAG	2.8
TTAGGTTTCCTTCTGCTTTAGTGCTAG	7.06

Series 2
Target: TAR DNA-binding protein 43, full length, His tag (TARDBP, Homo sapiens, UniProt Q13148, residues 1-414)
Method: RNA Bind-n-Seq
Form: RNA
Sample: in vitro
Concentration: 20 nM
Setting: 6-mer, flanks averaged, single round
Together with: 150 mM LiCl
Baseline: input library
Direction: higher = stronger binding
Strand	6-mer enrichment (R)
UUCUCG	0.876
AAUAAA	1.08
GCCGAG	1
CACCGA	0.875

Series 3
Target: Phosphate system positive regulatory protein PHO4, full length, GST-tagged (PHO4, Saccharomyces cerevisiae, UniProt P07270, residues 1-312)
Method: competition protein-binding microarray
Form: double-stranded DNA, one strand shown
Sample: in vitro
Concentration: 2 µM
Setting: whole 60-bp probe, lowest competitor level
Together with: Cbf1 competitor, 0.05 µM
Direction: higher = stronger binding
Constant ends, left off below: … GTCTTGATTCGCTTGACGCTGCTG
Construct (chain): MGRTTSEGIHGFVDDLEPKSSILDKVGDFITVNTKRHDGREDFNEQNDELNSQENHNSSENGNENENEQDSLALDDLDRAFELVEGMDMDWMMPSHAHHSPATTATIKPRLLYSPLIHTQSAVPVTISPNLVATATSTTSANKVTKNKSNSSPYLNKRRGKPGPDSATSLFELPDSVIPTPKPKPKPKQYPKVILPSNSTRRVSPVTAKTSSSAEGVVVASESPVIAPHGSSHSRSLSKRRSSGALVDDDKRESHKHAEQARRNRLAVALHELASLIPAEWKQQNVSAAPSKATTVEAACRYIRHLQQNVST
Strand	fluorescence intensity
TCAAATATTCCATCGCACGTGTAGTACCCAATGGTT	19000 a.u.
TCTGTAACTTAATCACACGTGCAAAGTCTCTTTTAC	20000 a.u.
AAATTACTAAGTTGGGCCGTGGGTGACGCCGTATGA	5290 a.u.
CATACCCAACCTTTTCACGTGCGCTAAGATATTTGT	15000 a.u.
TAACGCTGGGTTTTGCACGTGTTGATAATTACATCG	18700 a.u.

Mixed results
Substance	target	assay	system	conditions	scale	measurement	value
PhoQ, residues 284 288 289 292 302 303 SLANKL	PhoP, residues 12 14 15 18 19 AGCRL (Escherichia coli, UniProt P23836)	Sort-seq, measured: YFP reporter	E. coli	PhoQ-PhoP variant library, together with: 10 µM Mg2+	baseline: high Mg2+ state, higher = stronger signaling	fold induction	39.6
